# Measurements of several laboratories.
# Every numbered part comes from another study and shows a few of its results, in no order. Substitutions count along the parent as printed.

# Study 1
# Target: Prothrombin, mature alpha-thrombin (F2, Homo sapiens, UniProt P00734)
# Technique: aptamer microarray, sandwich
# Molecule type: DNA with 2'F-ANA
# Sample: in vitro
# Concentration: 200 nM
# Setting: whole 15-mer aptamer, many near background
# Together with: Cy3 exosite-II aptamer, 400 nM
# Direction: higher = stronger binding
# Oligonucleotide: GGTTGGTGTGGTTGG
Modification,mean fluorescence intensity [a.u.]
2'F-ANA at 4 7 9 11 12 13 14,109
2'F-ANA at 2 4 7 8 9 11 12,562
2'F-ANA at 1 3 5 6 11 12 13 14 15,49.9
2'F-ANA at 1 3 4 5 8 10 11 12 14 15,62.6
2'F-ANA at 1 2 4 5 7 8 10 11 13 14,81.3
2'F-ANA at 1 3 5 10 11 14,59.6
2'F-ANA at 1 3 5 7 11 14,44.4
2'F-ANA at 1 4 5 6 7 8 9 11 12 13 14,49
2'F-ANA at 1 4 6 7 8 9 11 12 13 15,157
2'F-ANA at 4 6 7 8 10 12 14 15,61.4
2'F-ANA at 1 5 7 8 9 13 14 15,45.9
2'F-ANA at 1 2 8 10 14,47.5
2'F-ANA at 1 3 4 8 11 12 15,382
2'F-ANA at 1 4 5 8 10 14,44.1
2'F-ANA at 1 2 5 6 7 8 9 10 12 15,81.9
2'F-ANA at 5 7 8 9 12 13,126
2'F-ANA at 2 6 8 14 15,134
2'F-ANA at 1 7 8 9 12 14,76.6
2'F-ANA at 4 7 8 9 14 15,115
2'F-ANA at 2 3 10 12 14 15,317
2'F-ANA at 1 3 5 6 7 8 10 12 14,45.1
2'F-ANA at 2 5 11,60.7

# Study 2
# Target: BATF, bZIP domain (human)
# Technique: DHFR protein complementation
# Sample: yeast
# Setting: single substitutions, most at no-binding floor
# Relative to: wild-type JUN-FOS pair
# Direction: higher = stronger binding
# Starting sequence: JUN, bZIP domain (human); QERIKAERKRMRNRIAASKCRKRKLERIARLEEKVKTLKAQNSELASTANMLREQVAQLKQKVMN; partner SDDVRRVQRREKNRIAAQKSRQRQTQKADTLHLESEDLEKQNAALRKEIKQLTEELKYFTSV
Substitution,binding fitness
K36T,-0.124 natural log
K39R,0.135 natural log
S43W,-0.121 natural log
E54R,-0.0776 natural log
S43E,0.0642 natural log
Q41L,-0.0865 natural log
L59R,-0.539 natural log
A46V,0.0238 natural log
K36V,-0.0208 natural log
E33N,-0.186 natural log
K34P,-1 natural log
A46R,0.0493 natural log
L59W,-0.155 natural log
K34W,0.16 natural log
A49I,-0.38 natural log
R30G,0.103 natural log
E44C,-0.0859 natural log
I28Y,-0.022 natural log
R30F,0.0372 natural log
E54F,-0.198 natural log
A29D,-0.0166 natural log
R30K,-0.0806 natural log
V56T,-0.454 natural log
A57Y,-0.0262 natural log
L52T,-1.22 natural log

# Study 3
# Target: CCND2, cyclin fold, Cln2 fusion (human)
# Technique: yeast growth competition, sequencing
# Sample: yeast
# Setting: weak parent motif
# Relative to: not given
# Direction: higher = stronger binding
# Starting sequence: DTL docking peptide (human); PSSMRKICTYFHR
Substitution,normalised enrichment score
S3A,-0.959
I7A,-0.374
Y10A,-0.684
S2A,-0.63
R5A,-0.487
T9A,-0.459
C8A,-0.867

# Study 4
# Target: Centromere-binding protein 1, full length, His-tagged (CBF1, Saccharomyces cerevisiae, UniProt P17106, residues 1-351)
# Sequence of UniProt P17106 (whole entry, looked up): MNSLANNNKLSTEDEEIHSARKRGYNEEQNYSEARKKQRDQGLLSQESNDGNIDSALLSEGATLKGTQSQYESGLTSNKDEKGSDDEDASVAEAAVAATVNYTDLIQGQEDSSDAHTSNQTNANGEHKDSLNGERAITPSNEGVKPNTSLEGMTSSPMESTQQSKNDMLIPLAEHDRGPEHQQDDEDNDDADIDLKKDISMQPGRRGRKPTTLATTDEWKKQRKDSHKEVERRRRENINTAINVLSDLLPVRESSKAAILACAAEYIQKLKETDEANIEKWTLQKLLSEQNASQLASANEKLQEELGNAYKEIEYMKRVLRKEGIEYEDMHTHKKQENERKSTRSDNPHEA
# Technique: competition protein-binding microarray
# Molecule type: double-stranded DNA, one strand shown
# Sample: in vitro
# Concentration: 2 µM
# Setting: whole 60-bp probe, lowest competitor level
# Together with: Pho4 competitor, 0.05 µM
# Direction: higher = stronger binding
# All sequences stand within: … GTCTTGATTCGCTTGACGCTGCTG
Oligonucleotide,fluorescence intensity
CCGACGTCCGCCTTGCATGCGCTCTCGCATTTTTAA,78.5 a.u.
CTAACGAAGGTTTGGTGAGTGGGTGACAAGCCAAGT,77.5 a.u.
CGGGGTTAAGTTTGCCAAGTGGGTGGCTTGCAGCAG,62.2 a.u.
TGCGCAACAACTTGAAAAGTGGGTGTATGTCTAGAA,78.3 a.u.
CTTATATCCTGGCTCAACGTGAAGAGATTCTAGATC,75.3 a.u.
CTTCTGTAAATTTGATAGGTGGGTGGACGCGCCCCG,92 a.u.
TGATGAAATCTCTGTGACCTGGAGCATCAATAACGG,84.1 a.u.
CGCGGAATGACTGGACCCGTGGGTAATCGCAGGGGA,69.3 a.u.
CGTAAACCTGACACCCTCGTGGGAGGAGCGCGCCCC,68.1 a.u.
CAGCAAGACCGGAAACACGTTGTTGGGTAAATACTT,156 a.u.
GTCTTGTCTCATTTTCACGTGACCTTCCCCACTTCA,5000 a.u.
CATACCCAACCTTGAGATGTGGGTGAAGATATTTGT,71 a.u.
TTGCTCGAACATTGTCATGTGATGCTAAACATTGTA,1170 a.u.
AGGAAACAATTGGTGAGCATGACAAACTTGTTTGGC,79.8 a.u.
ACTGCAAGCGACTATCATGTGATACGATAGCCGGGT,666 a.u.
TCACCCAAAACATTGATCATGCCTGAAGGTCCTAGG,85.9 a.u.
AGACGTTGAGAAGTCCTCGTGAATAATCTGAATGAC,131 a.u.
TCCAAAATTGACTCGCATGTGGTGTTGTCATTTTCT,108 a.u.
GATTAGTTTCAGGTACATGTGTCAAATGAGGATAAA,128 a.u.

# A few entries again (study 2):
Substitution,binding fitness
L59W,-0.155 natural log
L59R,-0.539 natural log
R30G,0.103 natural log
R30F,0.0372 natural log
E33N,-0.186 natural log
S43W,-0.121 natural log
K34P,-1 natural log
E44C,-0.0859 natural log
K36T,-0.124 natural log
